Results collected from several papers.
Each numbered part is a random draw from the data of one study; scales do not carry over between parts.
Chain of UniProt Q15831 (whole entry, looked up): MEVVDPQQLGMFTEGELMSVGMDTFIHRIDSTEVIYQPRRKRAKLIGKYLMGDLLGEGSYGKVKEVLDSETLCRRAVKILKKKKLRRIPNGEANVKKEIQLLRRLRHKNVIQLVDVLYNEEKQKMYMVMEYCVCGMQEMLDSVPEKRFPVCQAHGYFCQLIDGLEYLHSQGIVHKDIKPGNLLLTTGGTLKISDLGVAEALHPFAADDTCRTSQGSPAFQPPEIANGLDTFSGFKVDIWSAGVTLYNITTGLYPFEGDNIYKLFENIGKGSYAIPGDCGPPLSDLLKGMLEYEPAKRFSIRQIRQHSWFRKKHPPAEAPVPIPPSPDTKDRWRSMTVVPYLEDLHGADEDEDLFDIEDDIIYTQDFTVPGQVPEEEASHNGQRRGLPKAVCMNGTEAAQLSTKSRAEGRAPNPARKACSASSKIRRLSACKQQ
Chain of UniProt P33981 (whole entry, looked up): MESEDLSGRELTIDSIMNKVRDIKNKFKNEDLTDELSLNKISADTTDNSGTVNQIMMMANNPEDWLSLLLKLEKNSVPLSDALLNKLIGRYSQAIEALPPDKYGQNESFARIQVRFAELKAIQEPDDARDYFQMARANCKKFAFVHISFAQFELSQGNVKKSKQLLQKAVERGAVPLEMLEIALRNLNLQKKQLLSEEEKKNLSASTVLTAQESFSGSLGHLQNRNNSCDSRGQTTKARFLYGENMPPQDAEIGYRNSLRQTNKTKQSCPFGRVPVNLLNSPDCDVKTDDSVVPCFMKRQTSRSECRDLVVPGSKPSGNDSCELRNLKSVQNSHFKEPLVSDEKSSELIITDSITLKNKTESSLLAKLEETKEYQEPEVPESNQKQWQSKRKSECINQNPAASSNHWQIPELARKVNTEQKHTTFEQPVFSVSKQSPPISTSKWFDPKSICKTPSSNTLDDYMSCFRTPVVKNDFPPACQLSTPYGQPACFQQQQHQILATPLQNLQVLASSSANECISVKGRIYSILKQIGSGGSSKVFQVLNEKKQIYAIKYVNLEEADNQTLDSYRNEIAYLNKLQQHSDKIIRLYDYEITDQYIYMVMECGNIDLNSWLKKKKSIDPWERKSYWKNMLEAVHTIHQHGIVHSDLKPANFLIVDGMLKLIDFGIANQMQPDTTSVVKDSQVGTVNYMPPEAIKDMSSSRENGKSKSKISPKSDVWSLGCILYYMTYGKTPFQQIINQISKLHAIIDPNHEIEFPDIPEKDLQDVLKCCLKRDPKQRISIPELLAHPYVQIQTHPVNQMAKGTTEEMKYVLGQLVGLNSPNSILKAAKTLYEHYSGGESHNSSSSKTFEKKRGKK
Chain of UniProt Q14012 (whole entry, looked up): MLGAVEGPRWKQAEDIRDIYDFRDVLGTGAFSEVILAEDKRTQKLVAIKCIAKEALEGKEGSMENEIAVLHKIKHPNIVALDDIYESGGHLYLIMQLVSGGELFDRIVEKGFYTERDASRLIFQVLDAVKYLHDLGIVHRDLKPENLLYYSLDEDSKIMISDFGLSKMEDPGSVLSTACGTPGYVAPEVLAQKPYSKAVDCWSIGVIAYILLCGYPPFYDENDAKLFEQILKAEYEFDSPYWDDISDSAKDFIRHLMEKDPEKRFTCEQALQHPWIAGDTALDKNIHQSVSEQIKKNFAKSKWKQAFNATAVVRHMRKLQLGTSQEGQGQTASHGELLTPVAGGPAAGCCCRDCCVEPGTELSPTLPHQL
Chain of UniProt P31152 (whole entry, looked up): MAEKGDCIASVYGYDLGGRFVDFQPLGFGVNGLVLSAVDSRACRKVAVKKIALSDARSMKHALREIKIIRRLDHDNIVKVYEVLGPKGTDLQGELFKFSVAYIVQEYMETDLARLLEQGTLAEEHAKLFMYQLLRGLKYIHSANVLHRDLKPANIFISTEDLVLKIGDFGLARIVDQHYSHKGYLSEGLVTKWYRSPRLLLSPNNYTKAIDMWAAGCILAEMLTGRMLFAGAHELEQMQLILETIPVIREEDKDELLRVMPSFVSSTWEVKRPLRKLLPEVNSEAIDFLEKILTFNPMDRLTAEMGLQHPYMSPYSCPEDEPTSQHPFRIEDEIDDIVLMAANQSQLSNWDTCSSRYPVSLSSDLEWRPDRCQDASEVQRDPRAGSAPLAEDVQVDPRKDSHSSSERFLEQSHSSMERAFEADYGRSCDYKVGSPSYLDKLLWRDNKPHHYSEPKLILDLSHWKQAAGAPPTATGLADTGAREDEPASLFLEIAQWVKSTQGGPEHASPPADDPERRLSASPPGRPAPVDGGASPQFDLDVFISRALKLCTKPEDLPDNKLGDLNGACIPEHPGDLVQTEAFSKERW

Block 1
SMILES: C[C@H](c1ccnc(Nc2nc3ccc(-c4cc(N(C)C)ncn4)cc3[nH]2)c1)N1CCN(C(=O)CC(F)(F)F)CC1
Observed: cell-free assay
Technique: competition with immobilised ligand
Concentration: 0.1 µM
target	remaining binding [%]
GSK3A (Homo sapiens, UniProt P49840)	100
MAPK11 (Homo sapiens, UniProt Q15759)	89
STK39 (Homo sapiens, UniProt Q9UEW8)	100
EGFR (Homo sapiens, UniProt P00533, T790M)	100
ULK3 (Homo sapiens, UniProt Q6PHR2)	90
STK11 (Homo sapiens, UniProt Q15831)	100
PKMYT1 (Homo sapiens, UniProt Q99640)	83
MAST1 (Homo sapiens, UniProt Q9Y2H9)	100
PIKFYVE (Homo sapiens, UniProt Q9Y2I7)	100
TLK2 (Homo sapiens, UniProt Q86UE8)	99
RIOK3 (Homo sapiens, UniProt O14730)	97
PDGFRA (Homo sapiens, UniProt P16234)	99
PRKG1 (Homo sapiens, UniProt Q13976)	100
FGFR3 (Homo sapiens, UniProt P22607)	100
PIK3CB (Homo sapiens, UniProt P42338)	100
CAMK1 (Homo sapiens, UniProt Q14012)	88
TTK (Homo sapiens, UniProt P33981)	82
MAPK9 (Homo sapiens, UniProt P45984)	89
Cyclin-dependent kinase 4, with cyclin D3 (CDK4, Homo sapiens, UniProt P11802)	89
DAPK2 (Homo sapiens, UniProt Q9UIK4)	74
FGR (Homo sapiens, UniProt P09769)	85
MAPK4 (Homo sapiens, UniProt P31152)	100
TESK1 (Homo sapiens, UniProt Q15569)	98

Block 2
Target: Beta-1 adrenergic receptor (ADRB1, Homo sapiens, UniProt P08588)
Chain of UniProt P08588 (whole entry, looked up): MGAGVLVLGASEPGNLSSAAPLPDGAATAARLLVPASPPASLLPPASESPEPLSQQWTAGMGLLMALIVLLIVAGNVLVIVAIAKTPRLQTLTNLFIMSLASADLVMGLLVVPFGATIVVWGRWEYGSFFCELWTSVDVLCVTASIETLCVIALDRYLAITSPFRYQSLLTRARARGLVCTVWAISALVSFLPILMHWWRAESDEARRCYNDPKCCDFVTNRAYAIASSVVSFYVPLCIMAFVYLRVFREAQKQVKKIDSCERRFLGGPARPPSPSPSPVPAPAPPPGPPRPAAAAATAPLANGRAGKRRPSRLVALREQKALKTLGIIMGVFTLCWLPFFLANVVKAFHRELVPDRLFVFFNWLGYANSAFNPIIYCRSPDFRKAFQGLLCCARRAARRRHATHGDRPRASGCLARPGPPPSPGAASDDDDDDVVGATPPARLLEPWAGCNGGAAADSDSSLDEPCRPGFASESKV
Action: antagonist
SMILES	IC50
O=C(Nc1ccc([C@@H](O)[C@H]2COCC(=O)N2Cc2ccc(F)cc2)cc1)c1ccc2c(c1)OCO2	≥ 100 µM
Cc1oc(C(O)c2ccccc2)nc1C(=O)NCCc1c[nH]cn1 (stereo not shown)	≥ 100 µM
OC(CNc1ncccn1)c1ccccc1 (stereo not shown)	≥ 100 µM
O=C1c2cnc(-c3ccccc3F)nc2OCCN1c1cccc(C(F)(F)F)c1	≥ 100 µM
Cc1noc2c(-c3ccsc3)cc(-c3cccnc3)nc12	≥ 100 µM
C[S+](=O)([O-])c1cccc(Nc2n[nH]c(C(O)c3ccccc3)n2)c1 (stereo not shown)	≥ 100 µM
Cc1cc(-c2cc3ccccc3o2)nc2ccccc12	35.5 µM
Cc1noc2c(-c3cccnc3NCC3CCOCC3)cc(-c3ccccc3)nc12	≥ 100 µM
CN(C)c1cccc(-c2ncc3c(n2)OCCN(Cc2ccc(F)cc2F)C3=O)c1	≥ 100 µM
CCCC(NCC(O)COc1ccc(-c2ccccc2)cc1)c1ccccc1 (stereo not shown)	≥ 100 µM
C=CCn1c(=O)c2cnc(Nc3ccc(N4CCN(C)CC4)cc3)nc2n1-c1cccc(C(C)(C)O)n1	≥ 100 µM
CN1CCN(CC(O)COc2cccc3[nH]ccc23)c2ccccc21 (stereo not shown)	≥ 100 µM
Oc1ccc(CCNCCCCCCNCCc2ccccc2)cc1O	≥ 100 µM
O=C(Nc1ccc2ccccc2n1)c1ccccc1OCc1cscn1	≥ 100 µM
COC(=O)c1c(OC)cc2c(c1C)Oc1c(Cl)c(O)c(Cl)c(C)c1C(=O)O2	≥ 100 µM
O=C(Nc1ccccc1)Nc1ccc([C@@H](O)[C@H]2COCC(=O)N2CC2CC2)cc1	≥ 100 µM
c1cc(-c2cc3c(ccn3Cc3ccncc3)c(N3CCOCC3)n2)c2cn[nH]c2c1	≥ 100 µM
Cc1noc2c(N(C)C)cc(-c3ccccc3)nc12	≥ 100 µM
CS(=O)(=O)N(CC(O)Cn1c2ccccc2c2ccccc21)c1ccc(F)cc1 (stereo not shown)	≥ 100 µM
Cc1cc(-c2nccc3c(=O)cc(N(C)C)oc23)ccn1	≥ 100 µM
c1ccc(-c2ccccc2Nc2cnc3ccc(N4CCOCC4)nn23)cc1	≥ 100 µM

Block 3
Target: Mitogen-activated protein kinase kinase kinase 9 (MAP3K9, Homo sapiens, UniProt P80192)
Chain of UniProt P80192 (whole entry, looked up): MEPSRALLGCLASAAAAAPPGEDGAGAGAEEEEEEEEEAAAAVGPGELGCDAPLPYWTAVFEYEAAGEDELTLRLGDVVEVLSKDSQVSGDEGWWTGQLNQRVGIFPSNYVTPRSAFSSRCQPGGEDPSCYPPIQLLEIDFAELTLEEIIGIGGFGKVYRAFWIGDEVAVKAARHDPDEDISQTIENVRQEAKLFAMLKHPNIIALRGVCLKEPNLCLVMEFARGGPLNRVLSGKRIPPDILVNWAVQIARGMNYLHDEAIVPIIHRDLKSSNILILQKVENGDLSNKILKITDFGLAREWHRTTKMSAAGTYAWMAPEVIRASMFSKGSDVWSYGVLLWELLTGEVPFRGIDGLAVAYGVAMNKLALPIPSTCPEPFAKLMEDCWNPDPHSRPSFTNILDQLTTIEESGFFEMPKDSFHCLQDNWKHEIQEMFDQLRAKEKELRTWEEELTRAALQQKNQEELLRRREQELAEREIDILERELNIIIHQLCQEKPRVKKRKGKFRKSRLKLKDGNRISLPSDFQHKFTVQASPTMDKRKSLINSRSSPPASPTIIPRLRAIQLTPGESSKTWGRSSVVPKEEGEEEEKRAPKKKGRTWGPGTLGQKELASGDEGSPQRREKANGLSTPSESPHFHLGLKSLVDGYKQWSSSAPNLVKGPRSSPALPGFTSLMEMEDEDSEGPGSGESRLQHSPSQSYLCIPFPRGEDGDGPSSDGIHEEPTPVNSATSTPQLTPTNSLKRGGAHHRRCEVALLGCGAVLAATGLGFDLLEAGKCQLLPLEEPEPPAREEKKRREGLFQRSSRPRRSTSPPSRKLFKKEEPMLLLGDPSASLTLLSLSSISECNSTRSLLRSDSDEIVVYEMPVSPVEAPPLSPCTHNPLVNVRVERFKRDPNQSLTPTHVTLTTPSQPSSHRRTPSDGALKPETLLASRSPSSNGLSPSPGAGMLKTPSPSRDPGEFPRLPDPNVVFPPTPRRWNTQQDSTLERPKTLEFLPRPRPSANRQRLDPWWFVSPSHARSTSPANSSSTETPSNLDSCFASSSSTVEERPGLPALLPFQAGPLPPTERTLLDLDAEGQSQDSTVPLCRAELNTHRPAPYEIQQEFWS
Observed: enzyme activity
Action: inhibitor
Concentration: 0.5 µM
Relative to: control
SMILES	remaining activity [%]
COc1ccc(COc2ccc(Cc3cnc(N)nc3N)cc2OC)cc1	105
c1ccc(-c2n[nH]c3c2oc2ccccc23)cc1	97.5
O=C1NC(=O)c2c1c1c3ccccc3[nH]c1c1[nH]c3cc(Br)ccc3c21	7.57
N#Cc1cnc2cnc(NCc3cccnc3)cc2c1Nc1ccc(F)c(Cl)c1	87.5
O=Nc1c(-c2c(O)[nH]c3cc(Br)ccc23)[nH]c2ccccc12	9.21
CCCCc1c(-c2ccc(OC)cc2)[nH]c2nccnc12	39.8
c1ccc2c(-c3ccncc3)c[nH]c2c1	83.3
O=C(c1cc2cc(O)ccc2[nH]1)c1cc2cc(O)ccc2[nH]1	42.6
O=C1NC(=O)c2c1c1c3ccccc3[nH]c1n1cncc21	72.5
O=c1cc(N2CCOCC2)oc2c(-c3ccccc3)cccc12	108
CN(C)S(=O)(=O)c1ccc2c(c1)/C(=C/c1cc3c([nH]1)CCCC3)C(=O)N2	74.6
Cc1ccc(S(=O)(=O)/C=C/C#N)cc1	96.9
CN1CCN(c2ccc3nc(-c4c(N)c5c(F)cccc5[nH]c4=O)[nH]c3c2)CC1	52.4
COc1cccc(-c2cc(=O)c3ccccc3o2)c1N	93.2
Cc1cc(Nc2cc(N3CCN(C)CC3)nc(Sc3ccc(NC(=O)C4CC4)cc3)n2)[nH]n1	38.7
CCCNC(=O)Nc1ccc(Oc2ncnc3cc(OC)c(OC)cc23)cc1Cl	88.9
COc1ccc2c(c1)c(C1=C(c3c[nH]c4ccccc34)C(=O)NC1=O)cn2CCCN(C)C	57.6
O=C1Nc2ccccc2/C1=C\c1c(Cl)[nH]c2ccccc12	97.9
O=C1Cc2c([nH]c3ccc(Br)cc23)-c2ccccc2N1	64.6
O=C1Nc2ccc(Br)cc2/C1=C/c1cc2c([nH]1)CCCC2	53.4

Block 4
Target: CRBN/Zinc finger protein Helios (Homo sapiens, UniProt Q96SW2+Q9UKS7)
Chain of UniProt Q9UKS7 (whole entry, looked up): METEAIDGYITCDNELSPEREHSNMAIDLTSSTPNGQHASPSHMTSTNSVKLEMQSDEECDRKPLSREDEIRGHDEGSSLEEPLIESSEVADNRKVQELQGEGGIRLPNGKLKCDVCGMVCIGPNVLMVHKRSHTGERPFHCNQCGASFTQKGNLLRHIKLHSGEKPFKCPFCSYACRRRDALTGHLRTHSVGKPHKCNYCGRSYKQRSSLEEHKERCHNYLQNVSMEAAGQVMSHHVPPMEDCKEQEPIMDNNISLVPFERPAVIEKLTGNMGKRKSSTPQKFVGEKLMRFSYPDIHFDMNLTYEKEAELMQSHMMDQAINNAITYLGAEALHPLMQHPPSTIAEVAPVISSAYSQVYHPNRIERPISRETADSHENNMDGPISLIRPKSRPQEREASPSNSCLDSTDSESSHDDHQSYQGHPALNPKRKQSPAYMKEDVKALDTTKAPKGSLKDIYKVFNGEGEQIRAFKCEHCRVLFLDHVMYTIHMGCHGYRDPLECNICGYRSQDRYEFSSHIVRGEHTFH
Chain of UniProt Q96SW2 (whole entry, looked up): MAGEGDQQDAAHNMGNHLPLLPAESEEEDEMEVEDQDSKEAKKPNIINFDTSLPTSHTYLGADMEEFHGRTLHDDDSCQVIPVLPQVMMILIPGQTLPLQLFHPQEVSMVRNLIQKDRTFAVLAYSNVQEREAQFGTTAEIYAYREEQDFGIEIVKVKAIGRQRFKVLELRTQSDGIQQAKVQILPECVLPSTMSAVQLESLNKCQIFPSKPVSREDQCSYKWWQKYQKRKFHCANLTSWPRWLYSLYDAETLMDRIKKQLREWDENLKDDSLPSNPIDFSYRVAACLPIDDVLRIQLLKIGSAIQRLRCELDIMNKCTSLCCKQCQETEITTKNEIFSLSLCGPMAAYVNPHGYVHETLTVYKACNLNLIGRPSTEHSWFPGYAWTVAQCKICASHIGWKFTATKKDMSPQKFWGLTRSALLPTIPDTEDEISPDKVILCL
Action: degrader
Technique: HiBiT
Cells: HEK293
Concentration: 41.15 nM
SMILES	protein remaining [%]
O=C1CCC(N2Cc3c(ccc4c3OCC43CCC(Cc4ccccc4)CC3)C2=O)C(=O)N1 (stereo not shown)	90
O=C1CCC(N2Cc3c(ccc4c3OCCC43CCN(Cc4ccccc4)CC3)C2=O)C(=O)N1 (stereo not shown)	71.2
O=C1CCC(N2Cc3c(ccc4c3OCC43CCC(Oc4ccccc4)CC3)C2=O)C(=O)N1 (stereo not shown)	89.7

Excerpt of the above (block 1):
target	remaining binding [%]
PIK3CB (Homo sapiens, UniProt P42338)	100
CAMK1 (Homo sapiens, UniProt Q14012)	88
TTK (Homo sapiens, UniProt P33981)	82
MAPK9 (Homo sapiens, UniProt P45984)	89
